{"data": "Assay results collected from several papers", "note": "Values joined by “and” are separate records of one study, mostly repeats; a detail may differ. Numbers after ± are the reported error."}
{"SMILES": "O=C(C[C@@H](C(F)F)n1ccc(F)n1)N1CCC(O)(Cn2cnc3c(cnn3-c3ccc(F)cc3)c2=O)CC1", "cell line": "CHP-212 USP7 V517F knock-in clone", "test": "SRB", "setting": "0.003048 µM", "viability": "101%"}
{"SMILES": "Cc1cccc(-c2[nH]c(CNc3ccccc3F)nc2-c2ccc3ncnn3c2)n1", "cell line": "MM1.S", "test": "XTT", "setting": "0.8 µM", "how to read": "relative to: untreated", "viability": "72%"}
{"SMILES": "CC(=O)c1nn(-c2ccc(Cl)cc2)/c(=N/N=C(\\C)c2ccc(NC(=O)c3ccc(C)cc3)cc2)s1", "cell line": "MCF7", "setting": "10 µM", "viability": "5.22%"}
{"SMILES": "Nc1cccc2c1C(=O)N(C1CCC(=O)NC1=O)C2=O (stereo not drawn)", "cell line": "MM1.S resistant to compound", "test": "XTT", "setting": "0.6 µM", "viability": "101% and 62% and 55%"}
{"SMILES": "COc1ccc(-n2nc(C(C)=O)s/c2=N\\N=C(/C)c2ccc(NC(=O)c3ccc(Cl)cc3)cc2)cc1", "cell line": "MCF7", "setting": "0.078 µM", "viability": "84.8%"}
{"SMILES": "Cc1c(-c2c(-c3ccc(F)o3)sc3ncnc(O[C@H](Cc4ccccc4OCc4ccnn4CC(F)(F)F)C(=O)O)c23)ccc(OCCN2CCN(C)CC2)c1Cl", "cell line": "U-937", "test": "CellTiter-Glo", "setting": "concentration not given, single agent, 5% FBS", "viability": "inactive"}
{"SMILES": "CCCCCCCCCCCCCC(=O)N[C@@H](CCSC)C(=O)N[C@@H](C)C(=O)N[C@@H](CO)C(=O)N[C@@H](CCCNC(=N)N)C(=O)NCC(=O)N[C@@H](C)C(=O)N[C@@H](CC(C)C)C(=O)N[C@@H](CCCNC(=N)N)C(=O)N[C@@H](CCCNC(=N)N)C(=O)N[C@@H](CS)C(=O)N[C@@H](CC(C)C)C(=O)N[C@@H](CO)C(=O)N1CCC[C@H]1C(=O)NCC(=O)N[C@@H](CC(C)C)C(=O)N1CCC[C@H]1C(=O)N[C@@H](CCCNC(=N)N)C(=O)N[C@@H](CC(C)C)C(=O)N[C@@H](CC(C)C)C(=O)N[C@@H](Cc1c[nH]cn1)C(=O)N[C@@H](CC(C)C)C(=O)N[C@@H](CO)C(=O)N[C@@H](CCCNC(=N)N)C(=O)NCC(=O)N[C@@H](CC(C)C)C(=O)N[C@@H](C)C(N)=O", "cell line": "U-937", "test": "cell viability, XTT", "setting": "concentration not given, lymphoma", "viability": "inhibited"}
{"SMILES": "CC(=O)Nc1cccc(-n2c(=O)n(C3CC3)c(=O)c3c(Nc4ccc(I)cc4F)n(C)c(=O)c(C)c32)c1", "cell line": "LoVo (KRAS G13D)", "test": "resazurin", "setting": "50.00 nM, 72 h", "how to read": "relative to: DMSO", "viability": "45.3%"}
{"SMILES": "O=C(O[C@@H]1COC(=O)c2cc(O)c(O)c(O)c2-c2c(cc(O)c(O)c2O)C(=O)O[C@H]1[C@@H]1OC(=O)c2cc(O)c(O)c(O)c2-c2c(O)c(O)c(O)c3c2C(=O)O[C@H]1[C@@H]3O)c1cc(O)c(O)c(O)c1", "cell line": "SH-SY5Y", "test": "neuroprotection, MTT", "setting": "10.7 µM, 24 h, with: H2O2 100 µM", "viability": "73.7 ± 2.04%"}
{"note": "Excerpt of the above:"}
{"SMILES": "CC(=O)c1nn(-c2ccc(Cl)cc2)/c(=N/N=C(\\C)c2ccc(NC(=O)c3ccc(C)cc3)cc2)s1", "cell line": "MCF7", "setting": "10 µM", "viability": "5.22%"}
